Measurements collected from several papers.
Values joined by “and” are separate records of one study, mostly repeats; a detail may differ. ± gives the spread as reported.

| Molecule | assay | system | setting | Tmax |
| --- | --- | --- | --- | --- |
| CC/C=C\C/C=C\C/C=C\C/C=C\C/C=C\CCCCOC(CC)C(=O)O (stereo not drawn) | – | Wistar rat, male, portal vein plasma | oral, 100 mg/kg | 120 min |
| Cc1ccc(/N=N/c2c(O)ccc3ccccc23)c(C)c1 | – | Sprague-Dawley rats both sexes, whole blood | oral, 50 mg/kg | ~81.7 min |
| CCCC(CCC(=O)O)NC(=O)c1ccc2c(c1)OCO2 (stereo not drawn) | – | female Sprague-Dawley rat, plasma | oral, 50 mg/kg of parent drug | 60 min |
| CC1(C)C2CCC1(C)C(OC(=O)/C=C/c1ccc(O)c(O)c1)C2 (stereo not drawn) | – | Sprague-Dawley rat, plasma | oral gavage, 30 mg/kg | 31.8 ± 16.8 min |
| COC(=O)C(CSC1CC(=O)N(CCC(=O)O)C1=O)NC(=O)CCC(NC(=O)c1ccc(NCc2cnc3nc(N)nc(N)c3n2)cc1)C(=O)O (stereo not drawn) | – | female Lewis rats, plasma | subcutaneous, 500 nmol/kg of parent drug | ~60 min |
| C=C(c1cc(F)c(C(=O)O)c(F)c1)c1cc2c(cc1C)C(C)(C)CCC2(C)C | – | rat Sprague-Dawley male, plasma | oral, 100 mg/kg, sesame oil | 60 min |
| CC(=O)[CH](C(C)=O)[Pt-2]1([S+](C)C)[O]C(C)=CC(C)=[O+]1 (stereo not drawn) | item: platinum | rat, whole blood | intravenous, dose not given | 30 min |
| CCCC(CCC)NC(=O)c1ccc(OS(=O)(=O)O)c(OC)c1 | – | female Sprague-Dawley rat, plasma | oral, 20 mg/kg of parent drug | 30 min |
| CC(C)C[C@H](NC(=O)[C@H](CCCCN)NC(=O)CNC(=O)[C@H](CC(C)C)NC(=O)[C@@H](NC(=O)[C@@H]1CSSC[C@H](N)C(=O)N[C@@H](CO)C(=O)N[C@@H](CC(N)=O)C(=O)N[C@@H](CC(C)C)C(=O)N[C@@H](CO)C(=O)N[C@@H]([C@@H](C)O)C(=O)N1)C(C)C)C(=O)N[C@@H](CO)C(=O)N[C@@H](CCC(N)=O)C(=O)N[C@@H](CCC(=O)O)C(=O)N[C@@H](CC(C)C)C(=O)N[C@@H](Cc1c[nH]cn1)C(=O)N[C@@H](CCCCN)C(=O)N[C@@H](CC(C)C)C(=O)N[C@@H](CCC(N)=O)C(=O)N[C@H](C(=O)N[C@@H](Cc1ccc(O)cc1)C(=O)N1CCC[C@H]1C(=O)N[C@@H](CCCNC(=N)N)C(=O)N[C@H](C(=O)N[C@@H](CC(N)=O)C(=O)N[C@H](C(=O)NCC(=O)N[C@@H](CO)C(=O)NCC(=O)N[C@H](C(=O)N1CCC[C@H]1C(N)=O)[C@@H](C)O)[C@@H](C)O)[C@@H](C)O)[C@@H](C)O | ELISA | hairless Sprague-Dawley rat, male, serum | intravenous, 3 µg | 5 min |
| Cc1ccc(OCC(=O)O)cc1 | – | Sprague-Dawley rat Crl:CD(SD), female, plasma | oral, 100 mg/kg/day of parent drug, day 90, 90-day repeated dosing | 180 min |
| COC(=O)/C=C/C(=O)c1ccc(OC)cc1 | – | Sprague-Dawley rat, both sexes, plasma | oral, 200 mg/kg | 34.8 ± 27.6 min |
| Cc1noc(C)c1Cn1cc(N2C(=O)CN(Cc3cccc(OS(=O)(=O)O)c3)C2=O)cn1 | – | rat Sprague-Dawley male, plasma | oral, 10 mg/kg of parent drug | 30 min |
| O=C(O)CN1CCN(CC(=O)O)CCN(C(CCC(=O)NCc2ccc(NC(=S)NCCOCCOCCOCCNC(=O)CCCc3ccc(I)cc3)cc2)C(=O)O)CC1 (stereo not drawn) | dynamic PET/CT | Sprague-Dawley rats female, lumbar spinal canal L1-L2 | intrathecal lumbar infusion, median | 75 min |
| Oc1ccc2ccccc2c1/N=N/c1ccccc1 | – | Sprague-Dawley rats both sexes, whole blood | oral, 50 mg/kg | ~36.3 min |
| Cc1cc(O)c2c(c1)C(=O)c1cc(O)cc(O)c1C2=O.Cc1cc(O)c2c(c1)C(=O)c1cc(O)cc(O)c1C2=O.Cc1nc(C)c(C)nc1C | – | Sprague Dawley rat, plasma | oral, 100 mg/kg, alone or as equimolar cocrystal | 510 ± 233 min |
| CN1CCN(c2ccc(Nc3ncc(Cl)c(Nc4ccccc4P(C)(C)=O)n3)cc2Br)CC1 | – | Sprague-Dawley rat, male, plasma | oral, 25 mg/kg | 30 min and 120 min and 18 min |
| Cc1noc(C)c1Cn1cc(N2C(=O)CN(Cc3cccc(O[C@@H]4O[C@H](C(=O)O)[C@@H](O)[C@H](O)[C@H]4O)c3)C2=O)cn1 | – | rat Sprague-Dawley male, plasma | oral, 30 mg/kg of parent drug | 30 min |
| CCCC(CCC)NC(=O)c1ccc(OC2OC(C(=O)O)C(O)C(O)C2O)c(O)c1 (stereo not drawn) | – | male Sprague-Dawley rat, plasma | oral, 50 mg/kg of parent drug | 900 min |
| Cc1cc2c(cc1C1(c3ncc(C(=O)O)cn3)CC1)C(C)(C)CCC2(C)C | – | rat Sprague-Dawley male, plasma | oral, 100 mg/kg, sesame oil | 60 min |
| COc1cc(C=CC(=O)OCC2OC(OC3C(c4c(OC)cc5oc(-c6ccc(O)cc6)cc(=O)c5c4O)OC(CO)C(O)C3O)C(O)C(O)C2O)ccc1O (stereo not drawn) | – | male Sprague-Dawley rat, PCPA-induced insomnia, plasma | oral, 6.8 g/kg | 10.2 min |
| N[C@H](COc1ccccc1C(F)(F)F)c1ccccc1 | – | male Sprague-Dawley rat | intravenous, 5 mg/kg | 10.2 min |
| O=C(O)CN1CCN(CC(=O)O)CCN(C(CCC(=O)NCc2ccc(NC(=S)NCCNC(=O)CCCc3ccc(I)cc3)cc2)C(=O)O)CC1 (stereo not drawn) | dynamic PET/CT | Sprague-Dawley rats female, lumbar spinal canal L1-L2 | intrathecal lumbar infusion, median | 75 min |
| Ac-CSNLSTCXLGRLSQDLHRLQTYPKTDVGANAP-NH2 (N-acetyl, C-amide) | ELISA | peptide, high-fat diet Sprague Dawley rats, plasma | subcutaneous, 4 nmol/kg | 19.8 min |
| CCCC(CCC)NC(=O)c1ccc(OC2OC(C(=O)O)C(O)C(O)C2O)c(OC)c1 (stereo not drawn) | – | male Sprague-Dawley rat, plasma | oral, 200 mg/kg of parent drug | 480 min |
| N=C(N)NCCC[C@H](NC(=O)[C@@H]1CCCN1C(=O)[C@H](Cc1ccccc1)NC(=O)[C@@H]1CCCN1C(=O)[C@H](Cc1c[nH]cn1)NC(=O)[C@@H](N)Cc1ccccc1)C(=O)O | – | male Sprague-Dawley rat, plasma | intravenous, 10 mg/kg | 2 min |
| CCCC(CCC)NC(=O)c1ccc(O)c(O)c1 | – | female Sprague-Dawley rat, plasma | oral, 20 mg/kg of parent drug | 15 min |
| CC(C)CNC(=O)/C=C/CCc1ccc2c(c1)OCO2 | – | rat, sham-operated, plasma | oral, 50 mg/kg | 13.2 ± 4.2 min |

Repeated from above:
| Molecule | assay | system | setting | Tmax |
| --- | --- | --- | --- | --- |
| Cc1ccc(OCC(=O)O)cc1 | – | Sprague-Dawley rat Crl:CD(SD), female, plasma | oral, 100 mg/kg/day of parent drug, day 90, 90-day repeated dosing | 180 min |
| CCCC(CCC)NC(=O)c1ccc(OC2OC(C(=O)O)C(O)C(O)C2O)c(O)c1 (stereo not drawn) | – | male Sprague-Dawley rat, plasma | oral, 50 mg/kg of parent drug | 900 min |
